Assay results collected from several papers.
Each line is one published result; not all experiments were run side by side.
Target: 5-hydroxytryptamine receptor 6 (HTR6, Homo sapiens, UniProt P50406)
Sequence of UniProt P50406 (whole entry, looked up): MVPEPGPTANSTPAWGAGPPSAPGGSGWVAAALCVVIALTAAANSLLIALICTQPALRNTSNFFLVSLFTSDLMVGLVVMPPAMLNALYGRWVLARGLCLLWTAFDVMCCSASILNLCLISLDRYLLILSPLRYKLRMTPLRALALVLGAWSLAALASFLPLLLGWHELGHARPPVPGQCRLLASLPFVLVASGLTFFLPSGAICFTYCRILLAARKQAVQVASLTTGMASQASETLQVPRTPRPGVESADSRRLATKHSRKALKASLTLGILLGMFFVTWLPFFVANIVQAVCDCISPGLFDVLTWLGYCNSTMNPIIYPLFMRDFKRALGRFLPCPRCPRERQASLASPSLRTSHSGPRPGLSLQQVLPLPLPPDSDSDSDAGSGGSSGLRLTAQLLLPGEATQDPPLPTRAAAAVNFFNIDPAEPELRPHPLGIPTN

For `c1ccc(OC[C@H]2CN(CCN3CCc4ccccc43)CCO2)nc1`, the inhibition was 27.2% (radioligand binding; concentration not given, with: [3H]LSD).
`O=C1c2sc(-c3ccc(N4CCC(F)C4)nc3F)nc2CCN1c1cccnc1` (stereo not drawn) gave an inhibition of 3% (ligand displacement, radioligand; 1 µM).
`Brc1ccccc1-c1nnc(CSc2nnnn2-c2ccccc2)o1` has an inhibition of 35% (ligand displacement, radioligand; 10 µM).
For `CCC(=O)N(C)c1ccc(Cl)c(Cl)c1`, the inhibition was under 10% (ligand displacement, radioligand; 10 µM).
For `Cc1ccnc(OC[C@H]2CN(CCN3CCc4ccccc43)CCO2)c1`, the inhibition was 12.3% (radioligand binding; concentration not given, with: [3H]LSD).
`CNC(=O)C[C@H](Cc1ccc(C#N)cc1)NC(=O)c1cc(-c2ccc(CN[C@H](C)c3ccc(C)cc3)o2)ccc1Cl` gave an inhibition of 11% (agonist response, antagonist; human cells; 10 µM, 5-HT6 antagonist).
`CC1Cc2ccccc2N1C(=O)CN1CCN(Cc2ccccc2)CC1` (stereo not drawn) gave an inhibition of 23.4% (radioligand binding; concentration not given, with: [3H]LSD).
`COc1ccc(C(=O)Nc2c(-c3cccs3)nc3ccccn23)cc1` gave an inhibition of under 50% (ligand displacement, radioligand; 10 µM).
With `CO[C@@H](C)c1c(NC(=O)Nc2cnc(-n3nccn3)c(C(F)(F)F)c2)cnc2sc(C)nc12` the inhibition was -7.8% (ligand displacement, radioligand; 10 µM).

For quick reference, copied from above:
For `CCC(=O)N(C)c1ccc(Cl)c(Cl)c1`, the inhibition was under 10% (ligand displacement, radioligand; 10 µM).
